Measurements pooled from the literature.
A part holds a random share of what one study measured. Values joined by “and” are separate records of one study, mostly repeats; a detail may differ.
Sequence of UniProt P08631 (whole entry, looked up): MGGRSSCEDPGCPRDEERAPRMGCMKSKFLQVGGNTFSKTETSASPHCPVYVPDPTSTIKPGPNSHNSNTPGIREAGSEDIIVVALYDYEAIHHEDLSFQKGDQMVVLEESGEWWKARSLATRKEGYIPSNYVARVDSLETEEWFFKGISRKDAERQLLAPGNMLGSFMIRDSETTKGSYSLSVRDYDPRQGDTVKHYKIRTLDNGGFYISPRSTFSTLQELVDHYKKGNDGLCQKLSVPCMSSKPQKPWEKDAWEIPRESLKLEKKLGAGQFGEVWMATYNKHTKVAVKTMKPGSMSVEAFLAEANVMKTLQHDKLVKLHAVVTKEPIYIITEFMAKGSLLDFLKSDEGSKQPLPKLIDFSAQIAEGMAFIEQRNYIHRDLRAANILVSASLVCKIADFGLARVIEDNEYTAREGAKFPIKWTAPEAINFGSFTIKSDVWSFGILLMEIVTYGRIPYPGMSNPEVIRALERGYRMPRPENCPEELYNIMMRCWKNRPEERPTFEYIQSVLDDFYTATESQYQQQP
Sequence of UniProt Q8N752 (whole entry, looked up): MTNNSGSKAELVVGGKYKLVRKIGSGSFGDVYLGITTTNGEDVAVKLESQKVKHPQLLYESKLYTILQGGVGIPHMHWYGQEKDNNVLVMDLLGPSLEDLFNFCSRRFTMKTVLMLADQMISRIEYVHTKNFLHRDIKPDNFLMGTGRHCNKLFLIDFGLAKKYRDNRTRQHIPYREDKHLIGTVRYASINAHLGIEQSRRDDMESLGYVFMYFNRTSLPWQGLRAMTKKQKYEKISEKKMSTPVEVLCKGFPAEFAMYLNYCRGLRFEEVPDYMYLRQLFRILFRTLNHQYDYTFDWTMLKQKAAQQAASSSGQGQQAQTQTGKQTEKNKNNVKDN
Sequence of UniProt O75676 (whole entry, looked up): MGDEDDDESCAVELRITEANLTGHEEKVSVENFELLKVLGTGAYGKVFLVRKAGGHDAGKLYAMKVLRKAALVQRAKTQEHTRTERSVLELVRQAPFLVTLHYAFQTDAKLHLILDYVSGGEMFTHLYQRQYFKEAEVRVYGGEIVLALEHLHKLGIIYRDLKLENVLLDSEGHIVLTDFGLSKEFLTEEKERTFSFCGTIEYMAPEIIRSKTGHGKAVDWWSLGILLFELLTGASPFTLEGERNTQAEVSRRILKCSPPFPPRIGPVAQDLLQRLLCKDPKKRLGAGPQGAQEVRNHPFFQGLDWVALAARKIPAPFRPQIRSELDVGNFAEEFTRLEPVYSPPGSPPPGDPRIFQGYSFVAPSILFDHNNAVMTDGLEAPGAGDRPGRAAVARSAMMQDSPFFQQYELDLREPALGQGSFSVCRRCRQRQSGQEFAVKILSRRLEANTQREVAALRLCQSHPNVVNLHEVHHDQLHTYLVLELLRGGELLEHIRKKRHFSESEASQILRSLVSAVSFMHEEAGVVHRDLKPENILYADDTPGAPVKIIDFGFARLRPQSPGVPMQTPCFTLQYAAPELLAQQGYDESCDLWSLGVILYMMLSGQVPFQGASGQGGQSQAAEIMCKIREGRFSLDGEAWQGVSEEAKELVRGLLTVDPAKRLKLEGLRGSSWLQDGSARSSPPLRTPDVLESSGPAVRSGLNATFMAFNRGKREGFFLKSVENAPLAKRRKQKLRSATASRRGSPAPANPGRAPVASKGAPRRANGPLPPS
Sequence of UniProt Q9BYP7 (whole entry, looked up): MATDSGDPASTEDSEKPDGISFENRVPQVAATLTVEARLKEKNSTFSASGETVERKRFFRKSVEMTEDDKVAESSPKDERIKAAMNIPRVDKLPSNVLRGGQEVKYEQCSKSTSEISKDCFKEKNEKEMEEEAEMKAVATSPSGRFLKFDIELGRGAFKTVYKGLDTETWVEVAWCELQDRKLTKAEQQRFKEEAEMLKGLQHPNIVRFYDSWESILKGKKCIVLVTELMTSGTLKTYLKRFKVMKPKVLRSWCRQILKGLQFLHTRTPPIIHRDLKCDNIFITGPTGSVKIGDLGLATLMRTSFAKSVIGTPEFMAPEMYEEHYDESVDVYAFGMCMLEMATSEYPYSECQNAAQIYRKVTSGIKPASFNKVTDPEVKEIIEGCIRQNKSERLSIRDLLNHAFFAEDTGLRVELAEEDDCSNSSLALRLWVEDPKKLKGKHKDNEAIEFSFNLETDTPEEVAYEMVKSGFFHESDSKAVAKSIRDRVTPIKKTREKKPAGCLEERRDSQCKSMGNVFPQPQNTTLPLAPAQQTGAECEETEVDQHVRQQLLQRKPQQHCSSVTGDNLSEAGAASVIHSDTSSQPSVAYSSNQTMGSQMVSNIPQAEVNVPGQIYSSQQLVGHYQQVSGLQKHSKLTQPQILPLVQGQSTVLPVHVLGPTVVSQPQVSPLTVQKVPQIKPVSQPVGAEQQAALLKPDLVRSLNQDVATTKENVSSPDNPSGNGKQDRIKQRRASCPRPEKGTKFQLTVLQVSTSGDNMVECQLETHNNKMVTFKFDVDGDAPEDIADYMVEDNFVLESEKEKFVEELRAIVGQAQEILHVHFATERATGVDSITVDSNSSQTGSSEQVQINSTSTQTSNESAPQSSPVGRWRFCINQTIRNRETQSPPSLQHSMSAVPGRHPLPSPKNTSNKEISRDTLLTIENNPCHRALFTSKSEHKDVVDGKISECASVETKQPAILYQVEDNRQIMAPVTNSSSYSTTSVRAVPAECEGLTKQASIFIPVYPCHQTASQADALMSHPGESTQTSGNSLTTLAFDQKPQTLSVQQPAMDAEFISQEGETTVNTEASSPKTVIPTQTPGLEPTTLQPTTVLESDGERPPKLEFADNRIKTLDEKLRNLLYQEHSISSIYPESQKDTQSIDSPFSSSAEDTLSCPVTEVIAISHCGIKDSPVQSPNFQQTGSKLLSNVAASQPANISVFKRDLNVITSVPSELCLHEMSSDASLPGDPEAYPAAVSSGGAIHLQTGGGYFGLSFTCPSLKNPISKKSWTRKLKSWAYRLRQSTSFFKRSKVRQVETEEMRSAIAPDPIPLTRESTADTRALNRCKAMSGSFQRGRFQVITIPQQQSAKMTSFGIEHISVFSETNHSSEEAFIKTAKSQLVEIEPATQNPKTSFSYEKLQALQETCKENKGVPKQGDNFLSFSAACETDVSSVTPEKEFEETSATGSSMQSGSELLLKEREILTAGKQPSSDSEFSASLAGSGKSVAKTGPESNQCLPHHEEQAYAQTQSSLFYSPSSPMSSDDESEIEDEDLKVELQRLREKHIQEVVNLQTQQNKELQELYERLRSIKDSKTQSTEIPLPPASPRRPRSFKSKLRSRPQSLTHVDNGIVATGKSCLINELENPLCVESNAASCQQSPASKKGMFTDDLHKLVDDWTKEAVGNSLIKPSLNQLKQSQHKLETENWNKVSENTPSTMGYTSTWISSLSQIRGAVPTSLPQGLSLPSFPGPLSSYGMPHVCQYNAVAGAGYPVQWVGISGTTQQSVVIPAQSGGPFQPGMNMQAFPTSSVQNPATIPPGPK
Sequence of UniProt Q96L34 (whole entry, looked up): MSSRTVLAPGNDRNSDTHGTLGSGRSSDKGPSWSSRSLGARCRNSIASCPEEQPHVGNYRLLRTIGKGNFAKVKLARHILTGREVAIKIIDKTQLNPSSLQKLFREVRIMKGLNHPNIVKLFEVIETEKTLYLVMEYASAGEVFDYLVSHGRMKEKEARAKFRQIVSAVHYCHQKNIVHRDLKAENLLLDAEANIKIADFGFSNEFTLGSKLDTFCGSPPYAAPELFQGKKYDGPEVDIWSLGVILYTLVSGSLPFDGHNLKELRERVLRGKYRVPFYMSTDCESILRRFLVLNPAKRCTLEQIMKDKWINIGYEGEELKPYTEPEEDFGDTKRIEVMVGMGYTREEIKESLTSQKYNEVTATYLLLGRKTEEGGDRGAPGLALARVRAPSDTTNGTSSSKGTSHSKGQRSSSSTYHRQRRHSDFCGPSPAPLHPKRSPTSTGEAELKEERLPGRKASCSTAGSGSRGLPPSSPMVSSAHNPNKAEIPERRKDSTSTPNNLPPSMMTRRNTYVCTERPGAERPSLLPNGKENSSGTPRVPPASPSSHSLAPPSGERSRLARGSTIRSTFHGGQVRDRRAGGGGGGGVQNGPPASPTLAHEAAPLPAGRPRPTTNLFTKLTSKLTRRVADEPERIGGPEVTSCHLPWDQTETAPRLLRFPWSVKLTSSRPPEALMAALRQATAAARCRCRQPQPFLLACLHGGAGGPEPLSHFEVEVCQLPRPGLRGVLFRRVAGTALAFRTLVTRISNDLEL
Sequence of UniProt Q8TF76 (whole entry, looked up): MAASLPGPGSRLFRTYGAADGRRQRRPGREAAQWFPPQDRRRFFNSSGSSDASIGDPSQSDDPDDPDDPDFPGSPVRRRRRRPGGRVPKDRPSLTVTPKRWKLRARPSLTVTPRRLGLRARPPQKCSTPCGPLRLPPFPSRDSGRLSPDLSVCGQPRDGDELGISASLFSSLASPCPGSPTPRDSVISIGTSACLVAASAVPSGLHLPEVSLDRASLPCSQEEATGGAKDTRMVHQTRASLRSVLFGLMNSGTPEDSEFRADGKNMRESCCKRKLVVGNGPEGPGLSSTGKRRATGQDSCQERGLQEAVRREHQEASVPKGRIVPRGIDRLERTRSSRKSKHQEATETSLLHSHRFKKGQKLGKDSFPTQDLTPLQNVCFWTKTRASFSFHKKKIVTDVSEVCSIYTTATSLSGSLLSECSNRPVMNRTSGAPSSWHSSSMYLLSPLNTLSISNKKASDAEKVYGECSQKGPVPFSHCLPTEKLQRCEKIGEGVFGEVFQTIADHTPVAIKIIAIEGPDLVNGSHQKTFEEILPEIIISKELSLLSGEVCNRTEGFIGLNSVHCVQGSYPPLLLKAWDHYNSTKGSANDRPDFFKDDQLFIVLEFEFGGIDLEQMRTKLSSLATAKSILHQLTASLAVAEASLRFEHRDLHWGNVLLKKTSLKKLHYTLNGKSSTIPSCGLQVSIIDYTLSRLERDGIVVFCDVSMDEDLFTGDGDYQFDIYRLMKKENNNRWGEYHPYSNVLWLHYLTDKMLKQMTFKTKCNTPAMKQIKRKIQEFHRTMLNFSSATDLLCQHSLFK

Set 1
SMILES: CN(C)c1ncnc(-c2ccc3nc(Nc4cc(CN5CCN(C(=O)CC(F)(F)F)CC5)ccn4)[nH]c3c2)c1Cl
Effect on: cell-free assay
Technique: competition with immobilised ligand
Tested at: 1 µM
target | remaining binding
Ribosomal protein S6 kinase alpha-4, N-terminal kinase domain (RPS6KA4, Homo sapiens, UniProt O75676) | 80%
Aurora kinase C (AURKC, Homo sapiens, UniProt Q9UQB9) | 100%
WNK3 (Homo sapiens, UniProt Q9BYP7) | 85%
HASPIN (Homo sapiens, UniProt Q8TF76) | 100%
HCK (Homo sapiens, UniProt P08631) | 80%
SIK2 (Homo sapiens, UniProt Q9H0K1) | 59%
MARK4 (Homo sapiens, UniProt Q96L34) | 100%
CSNK1A1L (Homo sapiens, UniProt Q8N752) | 94%

Set 2
Host: human
Sample: microsomes or S9
Tested at: 2 µM
Time: 0.5 h
SMILES | remaining compound
COC(=O)c1sccc1NC(=O)c1cn(C)c(=O)cc1OC | 3.78%
Cc1c(Cl)c(C(=O)NN2CCOCC2)nn1C | 90%
O=C(NCCN1CCCCC1)c1cc2ccccc2s1 | 4.53%
c1ccc2c(-c3noc4c3CNCC4)cccc2c1 | 53%
Cc1cc(NCc2cn[nH]c2-c2ccccc2)ccc1Br | 18.8%
CCS(=O)(=O)CCNC(=O)NC(C)c1ccc(C)s1 (stereo not drawn) | 95.2%
CN(C)S(=O)(=O)CCNCc1ccc(-c2ccccc2)cc1 | 135%
CCn1cc(N(CC(C)C)C(=O)c2nncc3ccccc23)cn1 | 91.7%

Set 3
SMILES: C[C@@H]1[C@H](O)[C@@H](C)/C=C/C=C/C=C/C=C/C=C/C=C/C=C/[C@H](O[C@@H]2O[C@H](C)[C@@H](O)[C@H](N)[C@@H]2O)C[C@@H]2O[C@](O)(C[C@@H](O)C[C@@H](O)[C@H](O)CC[C@@H](O)C[C@@H](O)CC(=O)O[C@H]1C)C[C@H](O)[C@H]2C(=O)O
Cell line: THP-1
effect on | tested at | notes | inhibition
 | 10 µM | cytotoxicity | 101%
host cell growth | 0.04 µM |  | -0.12% and -0.29% and -4.9% and -1.51% and -1.33% and -5.73%
host cell growth | 0.1 µM |  | -1.7% and -1.33% and 1.16% and -0.55% and 0.28% and -1.73%

Mixed results
Compound | host | sample | route | dose | notes | endpoint | result
CC(C)n1cnc(-c2ccc(F)cc2)c1-c1ncc(C(=O)Nc2ccc(N3CCN(C)CC3)cc2)[nH]1 | human, idiopathic pulmonary fibrosis |  |  | 30 mg once daily | trial, treatment-emergent | patients with respiratory tract infection | 0%
CNC(=O)c1ccc(-c2cnn3ccc(C(=O)N(C)c4ccc(Cl)c(C(=O)OC)c4)cc23)cc1 | bovine | plasma | oral | 20 mg/kg/day |  | Cmax | 10.1 ng/mL
